Results of several laboratories.
Each line is one published result; not all experiments were run side by side.
Target: Serine/threonine-protein kinase MRCK gamma (CDC42BPG, Homo sapiens, UniProt Q6DT37)
Chain of UniProt Q6DT37 (whole entry, looked up): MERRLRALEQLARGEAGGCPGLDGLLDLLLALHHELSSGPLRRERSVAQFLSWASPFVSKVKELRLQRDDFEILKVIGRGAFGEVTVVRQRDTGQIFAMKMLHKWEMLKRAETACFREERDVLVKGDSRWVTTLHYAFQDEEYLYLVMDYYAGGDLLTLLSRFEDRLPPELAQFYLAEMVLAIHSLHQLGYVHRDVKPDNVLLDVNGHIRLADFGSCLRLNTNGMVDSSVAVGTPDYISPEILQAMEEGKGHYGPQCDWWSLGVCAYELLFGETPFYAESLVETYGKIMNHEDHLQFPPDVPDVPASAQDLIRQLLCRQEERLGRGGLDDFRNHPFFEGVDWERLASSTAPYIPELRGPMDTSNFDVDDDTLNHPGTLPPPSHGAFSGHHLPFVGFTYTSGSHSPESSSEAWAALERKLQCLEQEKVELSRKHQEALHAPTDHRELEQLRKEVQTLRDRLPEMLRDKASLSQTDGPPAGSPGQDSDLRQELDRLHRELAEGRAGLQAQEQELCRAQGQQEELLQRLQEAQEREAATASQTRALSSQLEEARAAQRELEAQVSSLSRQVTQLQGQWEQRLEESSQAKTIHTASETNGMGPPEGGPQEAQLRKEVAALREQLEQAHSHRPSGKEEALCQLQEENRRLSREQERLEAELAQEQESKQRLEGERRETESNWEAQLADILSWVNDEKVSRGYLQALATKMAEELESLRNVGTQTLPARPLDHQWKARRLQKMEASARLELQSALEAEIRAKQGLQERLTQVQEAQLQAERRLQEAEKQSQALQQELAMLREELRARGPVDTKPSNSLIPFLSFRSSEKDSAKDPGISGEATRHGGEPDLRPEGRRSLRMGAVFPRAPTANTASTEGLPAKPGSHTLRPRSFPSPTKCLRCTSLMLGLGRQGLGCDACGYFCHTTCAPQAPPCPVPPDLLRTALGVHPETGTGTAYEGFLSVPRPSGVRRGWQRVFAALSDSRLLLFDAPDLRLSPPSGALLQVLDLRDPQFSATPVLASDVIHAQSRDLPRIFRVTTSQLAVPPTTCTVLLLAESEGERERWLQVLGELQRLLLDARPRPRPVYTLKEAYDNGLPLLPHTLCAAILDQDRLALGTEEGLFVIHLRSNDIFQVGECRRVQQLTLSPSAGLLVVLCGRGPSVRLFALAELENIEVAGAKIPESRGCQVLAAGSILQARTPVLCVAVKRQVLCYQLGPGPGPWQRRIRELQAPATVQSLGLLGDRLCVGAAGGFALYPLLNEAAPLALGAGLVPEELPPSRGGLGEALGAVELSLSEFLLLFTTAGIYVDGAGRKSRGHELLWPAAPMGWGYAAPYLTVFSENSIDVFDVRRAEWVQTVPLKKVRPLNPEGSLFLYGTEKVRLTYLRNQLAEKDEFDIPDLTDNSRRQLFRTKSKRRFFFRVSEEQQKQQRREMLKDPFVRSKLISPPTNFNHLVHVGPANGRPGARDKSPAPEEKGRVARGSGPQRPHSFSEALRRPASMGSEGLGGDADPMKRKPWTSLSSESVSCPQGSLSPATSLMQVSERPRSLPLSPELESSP

Cn1c2c(Cl)c(Cl)ccc2c2cc(N)[nH]c(=O)c21
ΔTm (thermal shift; 10 µM, 2 µM protein; higher = stronger binding): -0.6 °C

COc1ncc2cc3ccccc3nc2c1C#N
remaining binding (KINOMEscan; 5 µM; relative to: DMSO): 97%

O=C(c1ccc(Nc2ncc(Cl)c(-c3ccc(Cl)s3)n2)cc1)N1CCC(N2CCCC2)CC1
remaining binding (binding, KINOMEscan competition binding; 1 µM; relative to: DMSO control): 38%

Cn1c2c(Cl)c(Cl)ccc2c2cc[nH]c(=O)c21
ΔTm (thermal shift; 10 µM, 2 µM protein; higher = stronger binding): 0.8 °C

O=C(c1ccc(Nc2nccc(-c3cc4ccccc4s3)n2)cc1)N1CCC(N2CCCC2)CC1
remaining binding (binding, KINOMEscan competition binding; 1 µM; relative to: DMSO control): 94%

C[C@@H](c1ccc(-n2cnc3c(N)ncnc32)cc1)N1CCc2nn(C)c(Cc3ccccc3)c2C1=O
remaining binding (KINOMEscan; 0.1 µM): 96%

Cn1c2c(c3ccccc31)C(C#N)C(C)(C)NC2=O (stereo not shown)
ΔTm (thermal shift; 10 µM, 2 µM protein; higher = stronger binding): -0.6 °C

C#Cc1cc(-c2cc(Nc3nc(N[C@@H](C)c4ccc(F)cn4)ncc3Cl)n[nH]2)ccc1C=O
inhibition (enzyme activity, inhibitor; 0.2 µM): 7.66%

CNC(=O)[C@@H]1CC[C@@H](n2c(-c3ccc4cnccc4c3)nc3ccc(C(=O)NCc4cccc(C(N)=O)c4)cc32)C1
remaining binding (KINOMEscan; 1 µM): 100%

Cn1c2c(c3ccc(Cl)c(Cl)c31)C(C#N)C1(CCCC1)NC2=O (stereo not shown)
ΔTm (thermal shift; 10 µM, 2 µM protein; higher = stronger binding): -0.9 °C

C=CC(=O)Nc1ccc(OC)c(Nc2cc(-c3[nH]c(SC)nc3-c3cccc(NC(=O)c4cccc(O)c4CN4Cc5ccccc5C4=O)c3)ccn2)c1
remaining activity (1 µM; relative to: control): < 10%

C=CC(=O)N1CCC(COCC(=O)N2CCN(c3nc(-c4cnc(N)nc4C(F)F)nc(N4CCOC[C@@H]4C)n3)CC2)CC1
remaining binding (KINOMEscan; 1 µM): 100%

CC1(C)NC(=O)c2[nH]c3c(Cl)c(Cl)ccc3c2C1C#N (stereo not shown)
ΔTm (thermal shift; 10 µM, 2 µM protein; higher = stronger binding): -0.7 °C

O=C(Nc1c[nH]nc1C(=O)NC1CCNCC1)c1cc(F)cc(F)c1
remaining binding (scanMAX; 1 µM; relative to: untreated): 100%

Cc1cnc(Nc2ccc(C(=O)N3CCC(N4CCCC4)CC3)cc2)nc1-c1cc2ccccc2s1
remaining binding (binding, KINOMEscan competition binding; 1 µM; relative to: DMSO control): 49%

Nc1ncnc2occ(-c3ccc(NC(=O)Nc4cc(C(F)(F)F)ccc4F)cc3)c12
remaining activity (enzyme activity, inhibitor; 20 µM): 1.7%

Some of these lines once more:
O=C(Nc1c[nH]nc1C(=O)NC1CCNCC1)c1cc(F)cc(F)c1
remaining binding (scanMAX; 1 µM; relative to: untreated): 100%
